Published values collected from several papers.
Each line is one published result; not all experiments were run side by side. ± gives the spread as reported.

SMILES | assay | test system | conditions | how to read | measurement | result
COc1cc(OC)c(/C=C/S(=O)(=O)Cc2ccc(OC)c(NCC(=O)O)c2)c(OC)c1 |  | cancer patients, phase I, plasma | oral, 280 mg twice daily, day 1 cycle 1 |  | Tmax | 1 ± 0.35 h
C=C(C)[C@@H]1CC[C@]2(NCCN3CCS(=O)(=O)CC3)CC[C@]3(C)[C@H](CC[C@@H]4[C@@]5(C)CC=C(C6=CC[C@@](CF)(C(=O)O)CC6)C(C)(C)[C@@H]5CC[C@]43C)[C@@H]12 |  | HIV-1-positive treatment-naive adults, plasma | oral, 140 mg single dose, day 1, with food |  | tmax | 5.51 h
Cn1c(-c2ccc(C(N)=O)cc2F)nnc1C(C)(C)Oc1c(F)cc(Cl)cc1F |  | healthy young Japanese subjects, plasma | oral, 20 mg once daily, day 18, 14 days dosing |  | Tmax range | 0.5 to 4 h
Cc1ccc(NC(=O)c2ccc(CN3CCN(C)CC3)cc2)cc1Nc1nccc(-c2cncc(-c3oncc3C)c2)n1 |  | healthy volunteers, plasma | oral, 12.5 mg once daily, day 1, 7-day dosing, mean |  | Tmax | 6.67 h
CN[C@H](CC(C)C)C(=O)N[C@H]1C(=O)N[C@@H](CC(N)=O)C(=O)N[C@H]2C(=O)N[C@H]3C(=O)N[C@H](C(=O)N[C@H](C(=O)O)c4cc(O)cc(O)c4-c4cc3ccc4O)[C@H](O)c3ccc(c(Cl)c3)Oc3cc2cc(c3O[C@@H]2O[C@H](CO)[C@@H](O)[C@H](O)[C@H]2O[C@H]2C[C@](C)(N)[C@H](O)[C@H](C)O2)Oc2ccc(cc2Cl)[C@H]1O | microdialysis | pig, vertebral cancellous bone | intravenous infusion, 1000 mg, infusion 100 min |  | Tmax | 2.65 h
Oc1ccc2c3c(cnc2c1)-c1ccc(C(F)(F)F)cc1O[C@@H]3c1ccc(OCCN2CC(CF)C2)cc1 |  | healthy women, fasted, plasma | oral, 400 mg, single dose, median |  | tmax | 2 h
OC[C@H]1O[C@@H](c2ccc(Cl)c(Cc3ccc(O[C@H]4CCOC4)cc3)c2)[C@H](O)[C@@H](O)[C@@H]1O |  | healthy male, plasma | oral, range, with or without lobeglitazone |  | Tmax at steady state | 0.67 to 4 h
CC[C@H](C)[C@H](NC(=O)[C@H](CCC(=O)O)NC(=O)[C@H](CO)NC(=O)[C@@H](NC(=O)[C@@H](N)CO)C(C)C)C(=O)N[C@@H](CCC(N)=O)C(=O)N[C@@H](CC(C)C)C(=O)N[C@@H](CCSC)C(=O)N[C@@H](Cc1cnc[nH]1)C(=O)N[C@@H](CC(N)=O)C(=O)N[C@@H](CC(C)C)C(=O)NCC(=O)N[C@@H](CCCCN)C(=O)N[C@@H](Cc1cnc[nH]1)C(=O)N[C@@H](CC(C)C)C(=O)N[C@@H](CC(N)=O)C(=O)N[C@@H](CO)C(=O)N[C@@H](CCSC)C(=O)N[C@@H](CCC(=O)O)C(=O)N[C@@H](CCCN=C(N)N)C(=O)N[C@H](C(=O)N[C@@H](CCC(=O)O)C(=O)N[C@@H](Cc1c[nH]c2ccccc12)C(=O)N[C@@H](CC(C)C)C(=O)N[C@@H](CCCN=C(N)N)C(=O)N[C@@H](CCCCN)C(=O)N[C@@H](CCCCN)C(=O)N[C@@H](CC(C)C)C(=O)N[C@@H](CCC(N)=O)C(=O)N[C@@H](CC(=O)O)C(=O)N[C@H](C(=O)N[C@@H](Cc1cnc[nH]1)C(=O)N[C@@H](CC(N)=O)C(=O)N[C@@H](Cc1ccccc1)C(=O)O)C(C)C)C(C)C |  | postmenopausal osteoporotic women | subcutaneous, 20 µg | baseline: thigh over abdominal wall injection | Tmax prolongation | 1.5 min
CC[C@H](C)[C@H](NC(=O)[C@H](Cc1ccccc1)NC(=O)[C@H](CCC(=O)O)NC(=O)[C@H](CCCCNC(=O)COCCOCCNC(=O)COCCOCCNC(=O)CC[C@H](NC(=O)CCCCCCCCCCCCCCCCC(=O)O)C(=O)O)NC(=O)[C@H](C)NC(=O)[C@H](C)NC(=O)[C@H](CCC(N)=O)NC(=O)CNC(=O)[C@H](CCC(=O)O)NC(=O)[C@H](CC(C)C)NC(=O)[C@H](Cc1ccc(O)cc1)NC(=O)[C@H](CO)NC(=O)[C@H](CO)NC(=O)[C@@H](NC(=O)[C@H](CC(=O)O)NC(=O)[C@H](CO)NC(=O)[C@@H](NC(=O)[C@H](Cc1ccccc1)NC(=O)[C@@H](NC(=O)CNC(=O)[C@H](CCC(=O)O)NC(=O)C(C)(C)NC(=O)[C@@H](N)Cc1cnc[nH]1)[C@@H](C)O)[C@@H](C)O)C(C)C)C(=O)N[C@@H](C)C(=O)N[C@@H](Cc1c[nH]c2ccccc12)C(=O)N[C@@H](CC(C)C)C(=O)N[C@H](C(=O)N[C@@H](CCCNC(=N)N)C(=O)NCC(=O)N[C@@H](CCCNC(=N)N)C(=O)NCC(=O)O)C(C)C |  | Caucasian subjects | subcutaneous once weekly, 0.5 mg, median |  | tmax at steady state | 36 h

Some of these lines once more:
SMILES | assay | test system | conditions | how to read | measurement | result
CN[C@H](CC(C)C)C(=O)N[C@H]1C(=O)N[C@@H](CC(N)=O)C(=O)N[C@H]2C(=O)N[C@H]3C(=O)N[C@H](C(=O)N[C@H](C(=O)O)c4cc(O)cc(O)c4-c4cc3ccc4O)[C@H](O)c3ccc(c(Cl)c3)Oc3cc2cc(c3O[C@@H]2O[C@H](CO)[C@@H](O)[C@H](O)[C@H]2O[C@H]2C[C@](C)(N)[C@H](O)[C@H](C)O2)Oc2ccc(cc2Cl)[C@H]1O | microdialysis | pig, vertebral cancellous bone | intravenous infusion, 1000 mg, infusion 100 min |  | Tmax | 2.65 h
Oc1ccc2c3c(cnc2c1)-c1ccc(C(F)(F)F)cc1O[C@@H]3c1ccc(OCCN2CC(CF)C2)cc1 |  | healthy women, fasted, plasma | oral, 400 mg, single dose, median |  | tmax | 2 h
